Results of several laboratories.
Lines come from different studies, so protocols differ. ± gives the spread as reported.
APP Aβ40 fibrils: Amyloid-beta precursor protein, Aβ40 fibrils (APP, Homo sapiens, UniProt P05067)
Chain of UniProt P05067 (whole entry, looked up): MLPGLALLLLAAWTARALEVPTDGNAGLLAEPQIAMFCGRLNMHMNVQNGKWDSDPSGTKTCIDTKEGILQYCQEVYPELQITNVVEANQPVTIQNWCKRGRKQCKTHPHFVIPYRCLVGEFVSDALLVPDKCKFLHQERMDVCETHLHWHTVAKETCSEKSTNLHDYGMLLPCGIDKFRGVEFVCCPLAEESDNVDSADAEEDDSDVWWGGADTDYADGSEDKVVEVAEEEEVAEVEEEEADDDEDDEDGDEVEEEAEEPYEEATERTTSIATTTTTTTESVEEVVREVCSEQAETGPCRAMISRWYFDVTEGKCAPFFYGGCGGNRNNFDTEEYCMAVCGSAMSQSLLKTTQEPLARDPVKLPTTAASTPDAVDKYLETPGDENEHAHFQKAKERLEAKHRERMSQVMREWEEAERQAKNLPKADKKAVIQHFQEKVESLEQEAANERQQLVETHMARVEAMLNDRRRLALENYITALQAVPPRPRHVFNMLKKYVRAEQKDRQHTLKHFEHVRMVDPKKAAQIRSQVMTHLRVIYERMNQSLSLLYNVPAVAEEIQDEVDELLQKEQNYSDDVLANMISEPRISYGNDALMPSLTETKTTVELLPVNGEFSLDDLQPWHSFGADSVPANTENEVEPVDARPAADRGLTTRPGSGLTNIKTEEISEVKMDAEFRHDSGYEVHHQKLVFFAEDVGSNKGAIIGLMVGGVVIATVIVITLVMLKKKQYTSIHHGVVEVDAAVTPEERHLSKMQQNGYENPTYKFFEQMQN
APP Aβ42 aggregates: Amyloid-beta precursor protein, Aβ42 aggregates (APP, Homo sapiens, UniProt P05067)
APP amyloid-beta aggregates: Amyloid-beta precursor protein, amyloid-beta aggregates (APP, Homo sapiens, UniProt P05067)
APP: Amyloid-beta precursor protein (APP, Homo sapiens, UniProt P05067)

`CC(C)C[C@@H]1NC(=O)CN(C)C(=O)CCCC(=O)NCCCC[C@@H](C(=O)N[C@@H](CCCNC(=N)N)C(N)=O)NC(=O)[C@H](Cc2ccccc2)NC(=O)[C@H](Cc2ccccc2)NC(=O)c2ccccc2NC1=O`: “amyloid fibril disruption” 74% (APP Aβ40 fibrils; ThT fluorescence; 2-fold molar excess, pH 7.4, 37 °C, added: preformed Aβ1-40 fibrils 40 µM).
With `CC[C@H](C)[C@@H]1NC(=O)[C@H]([C@@H](C)O)NC(=O)[C@H](Cc2ccc(O)cc2)NC(=O)[C@H](CCCNC(=N)N)NC(=O)[C@@H]2CCCN2C(=O)[C@H]2CCCN2C(=O)[C@H]([C@@H](C)O)NC(=O)[C@H](C(C)C)NC(=O)[C@H](C(C)C)NC(=O)[C@H](CCCCN)NC(=O)[C@H](CO)NC(=O)[C@@H](CCC(N)=O)NC(=O)[C@H](CO)NC(=O)[C@H](Cc2ccc(O)cc2)NC(=O)[C@H](CO)NC(=O)[C@H](Cc2ccc(O)cc2)NC(=O)[C@@H]2CCCN2C(=O)[C@H](CO)NC(=O)[C@H](CC(C)C)NC(=O)[C@H](CC(C)C)NC(=O)[C@H](C)NC(=O)[C@H](C)NC1=O` the soluble fraction was 91% (Amyloid-beta precursor protein, Aβ40 (APP, Homo sapiens, UniProt P05067); amyloid-beta aggregation, centrifugation; 24 h, 37 °C, 30 min at 19500 g, added: amyloid-beta).
With `CCCCN(CCCC)c1ccc(C=C(C#N)C(=O)OCCOCCOCCOC)cc1` the emission maximum was 468 nm (APP Aβ42 aggregates; binding, fluorescence spectroscopy; PBS; 4 µM, added: pre-aggregated Aβ(1-42) 5 µM).
The excitation maximum of `N#C/C(=C\c1ccc2cc(N3CCCCC3)ccc2c1)C(=O)OCC(O)CO` (stereo not shown) is reported as 410 nm (APP Aβ42 aggregates; fluorescence; added: aggregated Abeta42 5 µM).
With `COCCOCCOCCOC(=O)C(C#N)=Cc1ccc2cc(N3CCCCC3)ccc2c1` the maximum inhibition was 58% (APP amyloid-beta aggregates; IgG-amyloid beta binding, inhibitor, ELISA; added: aggregated amyloid beta).
`COCCOCCOCCOC(=O)/C(C#N)=C/c1ccc2cc(N3CCOCC3)ccc2c1` has an emission maximum of 525 nm (APP Aβ42 aggregates; fluorescence; added: aggregated Abeta42 5 µM).
`[123I]c1ccc2nc(-c3ccc(-n4ccnn4)nc3)cn2c1` gave an SUVR increase of 20 to 70% (Amyloid-beta precursor protein, amyloid-beta (APP, Homo sapiens, UniProt P05067); SPECT; Alzheimer's disease patients, cortical regions; range over cortical regions; reference: healthy control subjects).
Under “amyloid fibril disruption”, `CC(C)C[C@@H]1NC(=O)CN(C)C(=O)CCC(=O)NCCCC[C@@H](C(=O)N[C@@H](CCCNC(=N)N)C(N)=O)NC(=O)[C@H](Cc2ccccc2)NC(=O)[C@H](Cc2ccccc2)NC(=O)[C@H](C(C)C)NC1=O` is recorded as 70% (APP Aβ40 fibrils; ThT fluorescence; 2-fold molar excess, pH 7.4, 37 °C, added: preformed Aβ1-40 fibrils 40 µM).
For `COCCOCCOCCOCCOC(=O)/C(C#N)=C/c1ccc2cc(N3CCCCC3)ccc2c1`, the excitation maximum was 410 nm (APP Aβ42 aggregates; fluorescence; added: aggregated Abeta42 5 µM).
With `CN(C)c1ccc(C=C(C#N)C(=O)OCC(O)CO)cc1` (stereo not shown) the maximum inhibition was 79% (APP amyloid-beta aggregates; IgG-amyloid beta binding, inhibitor, ELISA; added: aggregated amyloid beta).
For `[11CH3]Nc1ccc(-c2nc3ccc(O)cc3o2)cn1`, “distribution volume ratio” read 0.75 ± 0.17 (APP; binding, PET, reference Logan; control subjects, white matter; reference: cerebellum).
`CC[C@H](C)[C@H](NC(=O)[C@H](Cc1ccccc1)NC(=O)[C@@H](N)C(C)C)C(=O)N[C@@H](C)C(N)=O` gave an inhibition of 61.7% (APP; amyloid aggregation, inhibitor, fluorescence; 4 µM, 24 h).
The fluorescence intensity of `COCCOCCOCCOC(=O)C(C#N)=Cc1ccc(N(C)C)cc1` is reported as 1.8 fold (APP Aβ42 aggregates; binding, fluorescence spectroscopy; PBS; 4 µM, added: pre-aggregated Aβ(1-42) 5 µM; reference: probe without Aβ).

For quick reference, copied from above:
Under “amyloid fibril disruption”, `CC(C)C[C@@H]1NC(=O)CN(C)C(=O)CCC(=O)NCCCC[C@@H](C(=O)N[C@@H](CCCNC(=N)N)C(N)=O)NC(=O)[C@H](Cc2ccccc2)NC(=O)[C@H](Cc2ccccc2)NC(=O)[C@H](C(C)C)NC1=O` is recorded as 70% (APP Aβ40 fibrils; ThT fluorescence; 2-fold molar excess, pH 7.4, 37 °C, added: preformed Aβ1-40 fibrils 40 µM).
